Measurements of several laboratories.
A part holds a random share of what one study measured.

Block 1 — method: RNA Bind-n-Seq; form: RNA; medium: in vitro; concentration: 200 nM; setting: whole 134-nt RNA, ends assumed; together with: 150 mM LiCl; baseline: input library; reading: higher = stronger binding; each molecule: 7-deaza-guanosine replaces G
Target: Fragile X messenger ribonucleoprotein 1, C-terminal low-complexity region (Fmr1, Mus musculus, UniProt P35922)
| Oligonucleotide | log2 enrichment |
| --- | --- |
| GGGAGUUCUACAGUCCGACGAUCUGGCAUGGAUCCAGUGGGCUGAGACCACCCUCAUUCAGCGGGAUCAGGAGCCAAUCCCGCAGAACAUUGACCGAGUUAAAGCCCUUAUCGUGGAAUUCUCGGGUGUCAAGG | -2.67 |
| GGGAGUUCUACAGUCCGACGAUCCUCAAGUCCUGUGCUACACAUCGUAUGUACCGAAUCGGAAAGGGAAAGGAAAGGAAAGUAUUAUGUUACGCCGUUCGGAUCUGCACUUCCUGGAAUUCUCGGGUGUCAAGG | -0.216 |
| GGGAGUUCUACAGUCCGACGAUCAGUCCUGUGCUACACAUCGUAUGUACCGAAUCAAAUUUAAAUUUUUAAAUUUUUAAAAAAGUAUUAUGUUACGCCGUUCGGAUCUGCACUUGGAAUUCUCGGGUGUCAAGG | -3.44 |
| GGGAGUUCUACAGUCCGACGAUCACCAUGCAGGUGGGCAUCUUUGGGAAGUGGGGCAACGGGGGGAUAGGGAGGGGGGUAACACUUUGGGAACAGGUGGUCCCAGGUCGUUUCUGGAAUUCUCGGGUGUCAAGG | 0.898 |
| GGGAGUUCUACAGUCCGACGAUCGUCCUGUGCUACACAUCGUAUGUACCGAAUCGGGUUUUUUGGUUUUUUGGUUUUUUGGAAAGUAUUAUGUUACGCCGUUCGGAUCUGCACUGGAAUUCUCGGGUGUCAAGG | -1.7 |
| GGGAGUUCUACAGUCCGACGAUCUCCUGUGCUACACAUCGUAUGUACCGAAUCGGGGUGGGGUUUUUGGGGUUUUUUUGGGGAAAGUAUUAUGUUACGCCGUUCGGAUCUGCAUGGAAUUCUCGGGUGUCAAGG | -0.664 |
| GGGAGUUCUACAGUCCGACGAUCUCAAGUCCUGUGCUACACAUCGUAUGUACCGAAUCGGGGCCCGGCCCGGCCCGGGAAAGUAUUAUGUUACGCCGUUCGGAUCUGCACUUCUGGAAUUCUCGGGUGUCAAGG | -1.08 |
| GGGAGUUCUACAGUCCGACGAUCUUGCAGAUGAGCUUAUGGGGGGCAAUCUUAAAAAGUCCACAGCAGAUGCAUCCGGCUCGAGGGGCCAUCAGCUUUGAAUAAAUGCUUGUUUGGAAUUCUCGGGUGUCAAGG | -1.32 |
| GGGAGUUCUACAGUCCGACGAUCACCAUGCAUGUGGGCAUCUUUGGGAAGUGGGGCAAGGGGGGGAUAGGGAGGGGGGUAACACUUUGGGAACAGGUGGUCCCAGGUCGUUUCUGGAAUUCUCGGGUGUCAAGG | 1.29 |
| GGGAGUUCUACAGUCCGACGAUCCCUGUGCUACACAUCGUAUGUACCGAAUCGGGGAAAAAAGGGAAAAAAGGGAAAAAAGGGAAAGUAUUAUGUUACGCCGUUCGGAUCUGCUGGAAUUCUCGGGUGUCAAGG | 0.136 |
| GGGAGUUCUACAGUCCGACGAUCAGUCCUGUGCUACACAUCGUAUGUACCGAAUCAAACCCAAAUUUUUAAAUUUUUAAAAAAGUAUUAUGUUACGCCGUUCGGAUCUGCACUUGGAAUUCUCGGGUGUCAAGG | -1.47 |

Block 2 — method: RNA Bind-n-Seq; form: RNA; medium: in vitro; concentration: 365 nM; baseline: no-protein control; reading: higher = stronger binding
Target: RNA binding protein fox-1 homolog 2, RRM domain, GST-SBP tag (RBFOX2, Homo sapiens, UniProt O43251-10, residues 100-194)
Setting: natural RNA segment, single round, ends assumed
Construct (chain): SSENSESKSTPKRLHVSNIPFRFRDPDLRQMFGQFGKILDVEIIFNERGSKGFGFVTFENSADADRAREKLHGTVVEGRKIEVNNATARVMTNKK
| Oligonucleotide | RBNS enrichment (R) |
| --- | --- |
| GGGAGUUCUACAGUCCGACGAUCGCCGCAGGAUAAAGAAAAUGAUAAACCCACAAAGUGCAUAUUUCAAAUAGCAUAUAUCUGAAAUCGUAUGUCUGUGCAGGUUUAACUGCUGCAUACAGCGGGCACAGAUGUGGAAUUCUCGGGUGCCAA | 0.25 |
| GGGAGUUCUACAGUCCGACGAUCGGGUUAGAAUUGGAAGGGAAGAGGAAAGAUGAGCAGAGUAGAGAGAUUUAACAAAUCACUUCCUUCAUCCUUGUUGUUAUGGAAACCGUUGCCAGAGCUGGAAGUUUCCAUGGAAUUCUCGGGUGCCAA | 0.923 |
| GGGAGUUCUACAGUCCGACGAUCUAUAUGAUAUGGUAUGAUGCUUAUGGUCUGCUAUGAGCAUUCCUGGGCAUACCACAUAACUAGAUGCAAGAACCUUGGGGUAGCAUUCUGUAUUUUUAAAUAUGUUUUAAUGGAAUUCUCGGGUGCCAA | 0.733 |
| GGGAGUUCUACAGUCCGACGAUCUUUGUGAGUAGUUUACUAAGGAACUGAAAAUGGUCCCCUUUGUCCAAGCUGAGCUGCUAGGGAAUCAAGGUGAACUAGACCCGUCCUCAGGCCUCUGGCACCUGUUUCUAUGGAAUUCUCGGGUGCCAA | 0.287 |
| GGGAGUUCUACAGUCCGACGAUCAGAUGGAACUUUCAUAAAGUUUCUUGGCAGUAGUUUAUUUUGCUUCAAAUAAACUUAUUUGAAAAGUGUCUCAAGUCAAAUGGAUUCAUCACCUGUCAUGCAUUGACACCUGGAAUUCUCGGGUGCCAA | 0.379 |
| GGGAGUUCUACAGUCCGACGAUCGAAUAGUGGAGUUAUAGAGAAGGGCCAGUCCUAAGAUGGAAGGAGCCCUACAAUCUGACUCCUUCUAGGGACUCUGGGGCUAGCUUUGUGGGAGAGUCAGCCCUGCCCCUUGGAAUUCUCGGGUGCCAA | 0.549 |
| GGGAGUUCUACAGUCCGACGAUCUAAGUGUAUGUAUGUGUGUGCGUGUGUGUGUGUCUUCUUAAAGAAGAUGUAAUUCACAAAUAGUUUAGCUCCCUAGCGCUCAGUUGUAGAAUAGAAAAUAGAACAUUAUUUGGAAUUCUCGGGUGCCAA | 1.4 |
| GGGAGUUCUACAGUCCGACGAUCGCACCUGAACCACUGUGGCCUUCUCAGCCUACAGCAGUGUGGUCUCUUACAUGGCCACAAAGGGACACACAGUGACAAAAGGCUCGGAAUGUUACAAUGGUAAAAUGAGUUGGAAUUCUCGGGUGCCAA | 1.94 |
| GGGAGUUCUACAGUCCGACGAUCGCAAUGAGGAAGGAAAGGUUUCAAAUUUAGGGGCAGAAGUGAGAGAAUGAGCCAACCCAUGUACCUGCUGCAACUGAACCAGACUGGGUUUUCAAGGCUCCCAGACGUAGUGGAAUUCUCGGGUGCCAA | 1.5 |

Block 3 — method: RNA Bind-n-Seq; form: RNA; medium: in vitro; concentration: not given; baseline: input RNA pool; reading: higher = stronger binding
Target: RING finger protein unkempt homolog, zinc fingers 1-6, GST-SBP tag (UNK, Homo sapiens, UniProt Q9C0B0, residues 30-357)
Sequence of UniProt Q9C0B0 (30-357, looked up): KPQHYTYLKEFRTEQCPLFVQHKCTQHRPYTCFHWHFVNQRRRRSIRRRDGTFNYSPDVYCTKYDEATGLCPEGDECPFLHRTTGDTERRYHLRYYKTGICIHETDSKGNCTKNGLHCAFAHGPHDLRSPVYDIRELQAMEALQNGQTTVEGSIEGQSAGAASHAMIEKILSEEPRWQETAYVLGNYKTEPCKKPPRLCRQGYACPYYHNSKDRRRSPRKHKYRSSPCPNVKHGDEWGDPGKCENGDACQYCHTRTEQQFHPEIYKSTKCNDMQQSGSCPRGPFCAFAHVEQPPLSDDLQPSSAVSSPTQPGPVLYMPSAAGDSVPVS
Setting: RNA with constant flanks, human and mouse sites, ends assumed
| Oligonucleotide | bound/input enrichment |
| --- | --- |
| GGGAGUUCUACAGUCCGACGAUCAAUUCCAAGGGUUAUACCAAGUCCAUUGAUAUUUGGUCUGUGGGCUGCAUCCUGGCAGAGAUGCUAUCCAACAGGCCUAUCUUCCCAGGAAAGCAUUACCUUGACCAGCUGAAUCACAUCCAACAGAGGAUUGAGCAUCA | 0.15 ratio |
| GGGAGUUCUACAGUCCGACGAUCAGCGAGCGAAAUCUUUGUACUUCUGAGUUCUUGCUGUAUGUAUGUUUUGUUUUAAAUCUGAUUAGGGACACCCAGCAGCUGGCCGGGAUUCUUGGAUUGCUCCUUGGGAGUUAAGAUUGUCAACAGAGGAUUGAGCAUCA | 0.287 ratio |
| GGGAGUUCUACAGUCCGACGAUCGUUCUUCUCCCAGAAUAUGGAGGCACCAAAGUAGUUCUAGAUGACAAGGAUUAUUUCUUAUUUAGAGAUAGUGACAUUCUUGGAAAGUAUGUCGACUGAAAUCACUGUUGAAAUGGUGUCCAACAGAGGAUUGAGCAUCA | 0.866 ratio |
| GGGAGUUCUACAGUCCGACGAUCCGUGGAGUUGCCGUUCUGUGCACUGAGUAAAGCUAGACUUUUCUCCAGUCCUCUUUCUGGAAUAGGAAACUCCCAAUAUUUAACCUUCAUUCAUCCUUAACGGUGUGGAAGGGUUGAUGGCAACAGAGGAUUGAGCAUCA | 0.134 ratio |
| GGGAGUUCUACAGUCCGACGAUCAAGGAACUCCAGGUUGAACUGUCUGGCUGAAGCAAGGGAGGGUCUGGCACGCCCCACCAAUAGUAAAUCCCCCUGCCUAUAUUAUAAUGGAUCAUGCGAUAUCAGGAUGGGGAAUGUAUGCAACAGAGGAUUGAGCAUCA | 0.512 ratio |
| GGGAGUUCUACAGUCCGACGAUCAUAUAGACCUAUGAUGUACAGGUACAACAUGUAUAGGUUACGUAGAUAUUAUGAGAAAUUUUAGUUUAUUGUGAGUACUCCAGUUGCUUUAAAAACCACCAGGGUGAUUUGCUGCUGGCUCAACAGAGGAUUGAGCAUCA | 63.8 ratio |
| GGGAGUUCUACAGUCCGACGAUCGUCAGCUGGGGUACAAAGGCCCAGCCUAUAGACUCCAUAUUAGCAGACUGGAAUGAAGACAUAGAAGCAUUUGAAAUGAUGGAGAAGGAUGAACUAUGACUCUCUGGAAAGACUCUGGUGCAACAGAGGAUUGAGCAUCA | 1.45 ratio |
| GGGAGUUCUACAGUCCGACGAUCUGGUUUGUGAAUUUUAUACAAUUGAAAGUCUUUUUUUCUUGCUUCUUUCUUCUCUUCUCAAGUUUCCCCCCUGUUUCUACUUUAUUGUUUGUCCUAACCAUUUCUACUACAGUUUUUUCCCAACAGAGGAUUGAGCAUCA | 1.73 ratio |
| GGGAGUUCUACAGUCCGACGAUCUACUUGUUCAGUCCAUAAACUAUGAUAUAGCCUCUAUACAUGGUAAGAAAAUUUGAAAAAUUAAAGAUGGUUGCACAGUAUACUUUUAUAAUCCAGCAUGUAACACCACAUGACAAUUUGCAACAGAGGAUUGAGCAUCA | 0.249 ratio |
| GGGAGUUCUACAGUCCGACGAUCUGUUGGUUAUUUUCUAAAUAUUUUUACAAGAAAAUUUAGUCUUAAAUUUGGAAGAAGAAACCCCCCCCUUGAAACUAUCAAUACUGUAAAUGUGACACAUGUUGCCCUGGUAAGGAUAUACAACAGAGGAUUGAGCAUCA | 0.945 ratio |
| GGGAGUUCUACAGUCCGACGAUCAAGCCCUGAUGUCAGUGUGUGUAACUGACCUCUGGCCUGGCCUGCACAGAGAAGCCCUAUAAUCACAGGUCUGUGGUGGCCCCGAAAUGGGGGGCCUGCUAGUCAGGAGGAUGCUGUGCACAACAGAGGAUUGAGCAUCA | 0.193 ratio |

Block 4 — method: protein binding microarray; form: double-stranded DNA, one strand shown; medium: in vitro; concentration: not given; baseline: not given; reading: higher = stronger binding
Target: Histone acetyltransferase KAT6A, winged helix 2, GST fusion (KAT6A, Homo sapiens, UniProt Q92794, residues 85-181)
Setting: 8-mer, flanks averaged, mean of 2 arrays, mostly near background
Target sequence (chain): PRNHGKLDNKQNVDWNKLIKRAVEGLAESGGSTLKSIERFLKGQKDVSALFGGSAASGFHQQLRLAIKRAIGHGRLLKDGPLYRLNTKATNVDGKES
| Oligonucleotide | E-score |
| --- | --- |
| ACGCTCAG | -0.0879 |
| GGAATTCA | 0.0276 |
| ATGAGGAC | -0.146 |
| ACCAGATG | -0.131 |
| AGTACACG | -0.107 |
| ACAACATA | -0.0448 |
| AGTAATCA | -0.0944 |
| ATGACCAG | -0.103 |
| CTAGCTAA | 0.0682 |
| TAGCGAAA | 0.0642 |
| TAAGTCAA | -0.0774 |
| AGTGGCTA | -0.0153 |
| CCATCAAG | -0.084 |
| CGTCAACG | -0.0882 |
| AGTGTGTC | 0.0452 |
| CTCGCACA | 0.0178 |
| AACGGGTG | -0.0686 |
| ACAAAAGG | 0.0588 |
| AGAACGGG | -0.0741 |
| TGTACACA | 0.00296 |
| AACGGTCT | -0.216 |
| ACCGGACC | 0.103 |
| CGGACGGC | 0.203 |
| ACAAAAAC | 0.137 |
| CTCCATCC | -0.128 |

Repeated from above (block 4):
| Oligonucleotide | E-score |
| --- | --- |
| CTAGCTAA | 0.0682 |
| ACAAAAAC | 0.137 |
| CTCCATCC | -0.128 |
| CCATCAAG | -0.084 |
| ACCAGATG | -0.131 |
